{"data": "Measured values gathered from unrelated publications", "organism": "Salmonella typhimurium", "note": "Protocols differ between the studies behind these lines. ± marks the error that the study gave."}
{"SMILES": "Fc1ccc(C2=CCNCC2)cc1", "test": "genotoxicity, SOS/umu test", "test system": "TA1535/pSK1002", "setting": "0.031 mg/mL, 4 h, with S9, full range", "quantity": "induction factor", "result": 0.9}
{"SMILES": "COCCN(CCOC)N=O", "test": "mutagenicity, Ames plate incorporation", "test system": "TA100", "setting": "50 µg/plate, 3 d, without S9, methanol", "quantity": "revertant colonies per plate", "result": "127 ± 17"}
{"SMILES": "CC(=O)N1CCC(C(=O)N2CCN3C(=O)c4cc(-c5ccccc5)ccc4NC(=O)C3C2)CC1 (stereo not drawn)", "test system": "TA1537", "setting": "15.8 µg/plate, together with: rat liver S9", "quantity": "revertants per plate", "result": 17}
{"SMILES": "Cc1cc(C(=O)NC(C)(C)COc2cccc3c2C(N)=NS(=O)(=O)N3)cc(C)n1", "test": "Ames test, confirmatory", "test system": "TA1537", "setting": "1000 µg/plate", "how to read": "relative to: solvent control", "quantity": "revertant ratio", "result": 1.3}
{"SMILES": "COc1cccc(-c2n[nH]c(SCc3ccccn3)n2)c1OC", "test": "Ames test, plate incorporation", "test system": "TA100", "setting": "0.13 mg/plate, without S9", "quantity": "revertant colonies per plate", "result": 108}
{"SMILES": "O=NN1CCN(C2CCCC2)CC1", "test": "mutagenicity, Ames plate incorporation", "test system": "TA1537", "setting": "2500 µg/plate, 3 d, without S9, methanol", "quantity": "revertant colonies per plate", "result": "10.3 ± 3"}
{"SMILES": "O=[N+]([O-])c1ccc(N2CCN(CCC(O)c3ccc(F)cc3)CC2)c(C(F)(F)F)c1 (stereo not drawn)", "test": "SOS/umu test", "test system": "TA1535/pSK1002", "setting": "0.008 mg/mL, 4 h, with S9, full range", "quantity": "survival", "result": "80.4%"}
{"SMILES": "CN(CC(C)(C)C)N=O", "test": "mutagenicity, Ames plate incorporation", "test system": "TA1535", "setting": "150 µg/plate, without S9, methanol", "quantity": "revertant colonies per plate", "result": "23.7 ± 4"}
{"SMILES": "O=[N+]([O-])c1ccc(N2CCC(NCCC(O)c3ccc(F)c4ccccc34)CC2)c(C(F)(F)F)c1 (stereo not drawn)", "test": "SOS/umu test", "test system": "TA1535/pSK1002", "setting": "0.008 mg/mL, 4 h, without S9, lower range", "quantity": "survival", "result": "22.6%"}
